{"data": "Experimental data of several laboratories", "note": "Compare with care: the assays were run in different laboratories. ± gives the spread as reported."}
{"SMILES": "Cc1c2oc3c(C)ccc(C(=O)N[C@@H]4C(=O)N[C@H](C(C)C)C(=O)N5CCC[C@H]5C(=O)N(C)CC(=O)N(C)[C@@H](C(C)C)C(=O)O[C@@H]4C)c3nc-2c(C(=O)N[C@@H]2C(=O)N[C@H](C(C)C)C(=O)N3CCC[C@H]3C(=O)N(C)CC(=O)N(C)[C@@H](C(C)C)C(=O)O[C@@H]2C)c(N)c1=O", "target or system": "human respiratory syncytial virus", "test": "viral replication", "test system": "BEAS-2B", "setting": "5 µM, 40 h", "quantity": "inhibition", "result": "52 ± 9.6%"}
{"SMILES": "Nc1ncnc2c1ncn2CCOCP(=O)(O)O", "target or system": "human alphaherpesvirus 2", "test": "viral replication", "setting": "0.04 µg/mL, 144 h", "quantity": "inhibition", "result": "80%"}
{"SMILES": "CC1(C)[C@@H](O[C@H]2O[C@H](C(=O)N[C@@H](Cc3ccc(O)cc3)C(=O)O)[C@@H](O)[C@H](O)[C@H]2O[C@@H]2O[C@H](C(=O)N[C@@H](Cc3ccc(O)cc3)C(=O)O)[C@@H](O)[C@H](O)[C@H]2O)CC[C@]2(C)[C@H]3C(=O)C=C4[C@@H]5C[C@@](C)(C(=O)N[C@@H](Cc6ccc(O)cc6)C(=O)O)CC[C@]5(C)CC[C@@]4(C)[C@]3(C)CC[C@@H]12", "target or system": "dengue virus type 2", "test": "viral replication", "test system": "Vero E6", "setting": "10 µM, 96 h", "scale": "baseline: infected untreated", "quantity": "inhibition", "result": "> 50%"}
{"SMILES": "N#Cc1ccc(-c2ccc(-c3ccco3)o2)cc1F", "target or system": "Salmonella enterica", "test": "sodium azide mutagenicity", "test system": "TA1535", "setting": "10 µM, 48 h, together with: sodium azide 2 µg/plate co-exposure", "quantity": "inhibition", "result": "94%"}
{"SMILES": "CN[C@@](C)(C[18F])C(=O)O", "target or system": "A549 tumour model", "test system": "host not given, muscle", "setting": "2 h, tumour-bearing", "quantity": "tracer uptake", "result": "1.6 %ID/g"}
{"SMILES": "CN(CCOc1ccc(CC2SC(=O)NC2=O)cc1)c1ccccn1 (stereo not shown)", "target or system": "human respiratory syncytial virus", "test": "viral replication", "test system": "BEAS-2B", "setting": "5 µM, 40 h", "quantity": "inhibition", "result": "85 ± 5.8%"}
{"SMILES": "CCCCCNC(=O)c1cn(CC)c2cc(N3CCN(C(=O)c4ccco4)CC3)c(F)cc2c1=O", "target or system": "Mycolicibacterium smegmatis", "test": "microbial growth", "setting": "50 µM", "quantity": "inhibition", "result": "~50%"}
{"SMILES": "CNCC(=O)N[C@@H](CO)C(=O)N[C@H]1[C@H](O)[C@@H](O)[C@H](n2ccc(N)nc2=O)O[C@@H]1C(N)=O", "target or system": "Tobacco mosaic virus", "test": "inactivation activity", "test system": "host plant", "setting": "500 µg/mL", "quantity": "inhibition", "result": "83.1%"}
{"SMILES": "N=C(N)c1ccc(-c2ccc(-c3ccco3)o2)c(F)c1", "target or system": "Salmonella enterica", "test": "sodium azide mutagenicity", "test system": "TA1535", "setting": "20 µM, 48 h, together with: sodium azide 2 µg/plate co-exposure", "quantity": "inhibition", "result": "91%"}
{"SMILES": "CCn1cc(C(=O)Nc2nccs2)c(=O)c2cc(F)c(N3CCN(C(=O)c4ccco4)CC3)cc21", "target or system": "Mycolicibacterium smegmatis", "test": "microbial growth", "setting": "50 µM", "quantity": "inhibition", "result": "~20%"}
{"SMILES": "C[C@H](Cn1cnc2c(N)ncnc21)OCP(=O)(O)O", "target or system": "human alphaherpesvirus 2", "test": "virus production", "test system": "human monocytes/macrophages", "setting": "1 µg/mL, 6 days", "quantity": "inhibition", "result": "34%"}
{"SMILES": "Cc1nc2ccc(CN(C)c3ccc(C(=O)N[C@@H](CCC(=O)O)C(=O)O)s3)cc2c(=O)[nH]1", "target or system": "human respiratory syncytial virus", "test": "viral replication", "test system": "BEAS-2B", "setting": "5 µM, 40 h", "quantity": "inhibition", "result": "91 ± 1%"}
{"SMILES": "N#Cc1ccc(-c2ccc(-c3cccs3)o2)cc1F", "target or system": "Salmonella enterica", "test": "sodium azide mutagenicity", "test system": "TA1535", "setting": "10 µM, 48 h, together with: sodium azide 2 µg/plate after pre-exposure", "quantity": "inhibition", "result": "94%"}
{"SMILES": "CCn1cc(C(=O)NC(C)c2ccccc2)c(=O)c2cc(F)c(N3CCN(C(=O)c4ccco4)CC3)cc21 (stereo not shown)", "target or system": "Mycolicibacterium smegmatis", "test": "microbial growth", "setting": "50 µM", "quantity": "inhibition", "result": "~50%"}
{"SMILES": "N=C(N)c1ccc(-c2ccc(-c3ccco3)o2)cc1F", "target or system": "Salmonella enterica", "test": "sodium azide mutagenicity", "test system": "TA1535", "setting": "20 µM, 48 h, together with: sodium azide 2 µg/plate co-exposure", "quantity": "inhibition", "result": "107%"}
{"SMILES": "COc1cc([C@@H]2c3cc4c(cc3[C@@H](O[C@@H]3O[C@@H]5CO[C@@H](C)O[C@H]5[C@H](O)[C@H]3O)[C@H]3COC(=O)[C@H]23)OCO4)cc(OC)c1O", "target or system": "human respiratory syncytial virus", "test": "viral replication", "test system": "BEAS-2B", "setting": "5 µM, 40 h", "quantity": "inhibition", "result": "80 ± 6.6%"}
{"SMILES": "CCn1cc(C(=O)NC2CC2)c(=O)c2cc(F)c(N3CCN(C(=O)c4ccco4)CC3)cc21", "target or system": "Mycolicibacterium smegmatis", "test": "microbial growth", "setting": "50 µM", "quantity": "inhibition", "result": "~20%"}
{"SMILES": "N#Cc1ccc(-c2ccc(-c3ccco3)o2)c(F)c1", "target or system": "Salmonella enterica", "test": "sodium azide mutagenicity", "test system": "TA1535", "setting": "10 µM, 48 h, together with: sodium azide 2 µg/plate after pre-exposure", "quantity": "inhibition", "result": "83%"}
{"SMILES": "COC(=O)C[C@](O)(CCCC(C)(C)O)C(=O)O[C@@H]1C(OC)=C[C@]23CCCN2CCc2cc4c(cc2[C@H]13)OCO4", "target or system": "human respiratory syncytial virus", "test": "viral replication", "test system": "BEAS-2B", "setting": "5 µM, 40 h", "quantity": "inhibition", "result": "98 ± 0.5%"}
{"note": "Some of these lines once more:"}
{"SMILES": "C[C@H](Cn1cnc2c(N)ncnc21)OCP(=O)(O)O", "target or system": "human alphaherpesvirus 2", "test": "virus production", "test system": "human monocytes/macrophages", "setting": "1 µg/mL, 6 days", "quantity": "inhibition", "result": "34%"}
{"SMILES": "Cc1nc2ccc(CN(C)c3ccc(C(=O)N[C@@H](CCC(=O)O)C(=O)O)s3)cc2c(=O)[nH]1", "target or system": "human respiratory syncytial virus", "test": "viral replication", "test system": "BEAS-2B", "setting": "5 µM, 40 h", "quantity": "inhibition", "result": "91 ± 1%"}
